Measurements from different studies.
Numbered parts are unrelated; each lists some results of a single study. Substitutions count along the parent as printed.
Sequence of UniProt Q99759 (whole entry, looked up): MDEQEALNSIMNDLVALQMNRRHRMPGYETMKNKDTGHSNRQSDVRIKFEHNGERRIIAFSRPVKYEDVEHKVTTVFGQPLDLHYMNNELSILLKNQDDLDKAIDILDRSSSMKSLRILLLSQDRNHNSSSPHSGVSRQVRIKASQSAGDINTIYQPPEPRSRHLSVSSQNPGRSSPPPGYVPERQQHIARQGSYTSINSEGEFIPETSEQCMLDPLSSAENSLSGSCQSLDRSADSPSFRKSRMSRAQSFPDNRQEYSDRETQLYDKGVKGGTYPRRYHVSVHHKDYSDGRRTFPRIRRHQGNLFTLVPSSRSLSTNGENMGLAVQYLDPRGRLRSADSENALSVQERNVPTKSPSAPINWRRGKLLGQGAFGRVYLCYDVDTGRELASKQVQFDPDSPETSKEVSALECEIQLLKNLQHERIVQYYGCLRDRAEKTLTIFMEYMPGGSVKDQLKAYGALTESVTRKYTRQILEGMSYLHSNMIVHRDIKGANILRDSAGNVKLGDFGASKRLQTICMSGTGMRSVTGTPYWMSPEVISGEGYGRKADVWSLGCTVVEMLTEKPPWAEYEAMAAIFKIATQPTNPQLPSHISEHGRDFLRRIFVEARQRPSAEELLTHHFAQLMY
Sequence of UniProt P42685 (whole entry, looked up): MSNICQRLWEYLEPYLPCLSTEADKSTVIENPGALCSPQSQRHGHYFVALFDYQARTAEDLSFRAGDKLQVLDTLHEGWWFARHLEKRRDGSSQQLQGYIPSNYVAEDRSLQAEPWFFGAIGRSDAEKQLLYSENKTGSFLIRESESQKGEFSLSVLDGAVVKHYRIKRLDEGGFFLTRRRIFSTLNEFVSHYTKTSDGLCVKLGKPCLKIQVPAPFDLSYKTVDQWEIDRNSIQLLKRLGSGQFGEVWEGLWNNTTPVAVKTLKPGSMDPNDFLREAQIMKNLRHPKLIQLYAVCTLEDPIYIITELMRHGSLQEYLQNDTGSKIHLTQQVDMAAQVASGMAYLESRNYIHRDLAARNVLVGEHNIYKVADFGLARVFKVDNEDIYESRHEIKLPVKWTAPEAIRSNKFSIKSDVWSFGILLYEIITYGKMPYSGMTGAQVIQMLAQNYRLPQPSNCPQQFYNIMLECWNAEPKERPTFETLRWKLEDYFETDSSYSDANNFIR
Sequence of UniProt Q15831 (whole entry, looked up): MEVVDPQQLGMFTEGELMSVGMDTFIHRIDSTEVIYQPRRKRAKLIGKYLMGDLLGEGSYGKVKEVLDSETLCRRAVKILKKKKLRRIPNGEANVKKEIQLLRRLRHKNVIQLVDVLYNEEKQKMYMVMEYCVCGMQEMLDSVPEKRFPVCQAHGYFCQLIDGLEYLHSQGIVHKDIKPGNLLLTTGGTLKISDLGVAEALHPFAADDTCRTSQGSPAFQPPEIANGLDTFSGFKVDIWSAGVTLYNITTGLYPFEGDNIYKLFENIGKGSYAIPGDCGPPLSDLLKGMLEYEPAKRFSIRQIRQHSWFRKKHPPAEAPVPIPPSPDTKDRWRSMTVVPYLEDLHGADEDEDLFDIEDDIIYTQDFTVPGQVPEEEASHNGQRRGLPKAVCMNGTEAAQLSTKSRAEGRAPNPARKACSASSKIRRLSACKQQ
Sequence of UniProt P35626 (whole entry, looked up): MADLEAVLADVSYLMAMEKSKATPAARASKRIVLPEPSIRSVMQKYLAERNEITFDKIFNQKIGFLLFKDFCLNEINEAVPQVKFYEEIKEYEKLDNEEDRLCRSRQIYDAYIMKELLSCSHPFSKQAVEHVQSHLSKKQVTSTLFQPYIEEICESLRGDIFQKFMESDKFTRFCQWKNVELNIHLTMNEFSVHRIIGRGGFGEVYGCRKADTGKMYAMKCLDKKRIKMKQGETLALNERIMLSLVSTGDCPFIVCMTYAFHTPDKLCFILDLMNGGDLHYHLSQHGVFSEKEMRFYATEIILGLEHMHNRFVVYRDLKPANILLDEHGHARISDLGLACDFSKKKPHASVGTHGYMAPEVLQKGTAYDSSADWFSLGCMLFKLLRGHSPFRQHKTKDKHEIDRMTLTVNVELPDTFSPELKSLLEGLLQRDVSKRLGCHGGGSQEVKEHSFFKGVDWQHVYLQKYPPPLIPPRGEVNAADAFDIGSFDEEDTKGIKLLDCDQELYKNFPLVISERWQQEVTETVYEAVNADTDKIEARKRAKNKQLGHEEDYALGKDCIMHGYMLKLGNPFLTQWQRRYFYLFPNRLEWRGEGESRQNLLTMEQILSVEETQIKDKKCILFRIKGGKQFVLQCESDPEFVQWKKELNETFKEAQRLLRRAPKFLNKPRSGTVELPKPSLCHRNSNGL
Sequence of UniProt P37173 (whole entry, looked up): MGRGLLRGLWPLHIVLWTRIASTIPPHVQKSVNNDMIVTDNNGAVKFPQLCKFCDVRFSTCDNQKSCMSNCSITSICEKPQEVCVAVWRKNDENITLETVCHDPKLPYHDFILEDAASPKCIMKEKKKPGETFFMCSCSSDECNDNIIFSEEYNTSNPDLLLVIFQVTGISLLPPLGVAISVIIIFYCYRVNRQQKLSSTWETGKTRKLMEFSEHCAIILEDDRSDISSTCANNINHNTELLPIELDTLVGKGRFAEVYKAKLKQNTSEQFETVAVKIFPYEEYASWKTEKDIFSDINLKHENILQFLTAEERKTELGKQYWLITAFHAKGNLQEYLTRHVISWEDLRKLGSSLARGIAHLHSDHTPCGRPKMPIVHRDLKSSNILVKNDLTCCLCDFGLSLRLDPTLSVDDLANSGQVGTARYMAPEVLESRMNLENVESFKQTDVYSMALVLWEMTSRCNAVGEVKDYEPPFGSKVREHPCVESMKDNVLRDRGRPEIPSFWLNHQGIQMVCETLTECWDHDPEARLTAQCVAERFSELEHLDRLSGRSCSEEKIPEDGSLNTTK
Sequence of UniProt P05771 (whole entry, looked up): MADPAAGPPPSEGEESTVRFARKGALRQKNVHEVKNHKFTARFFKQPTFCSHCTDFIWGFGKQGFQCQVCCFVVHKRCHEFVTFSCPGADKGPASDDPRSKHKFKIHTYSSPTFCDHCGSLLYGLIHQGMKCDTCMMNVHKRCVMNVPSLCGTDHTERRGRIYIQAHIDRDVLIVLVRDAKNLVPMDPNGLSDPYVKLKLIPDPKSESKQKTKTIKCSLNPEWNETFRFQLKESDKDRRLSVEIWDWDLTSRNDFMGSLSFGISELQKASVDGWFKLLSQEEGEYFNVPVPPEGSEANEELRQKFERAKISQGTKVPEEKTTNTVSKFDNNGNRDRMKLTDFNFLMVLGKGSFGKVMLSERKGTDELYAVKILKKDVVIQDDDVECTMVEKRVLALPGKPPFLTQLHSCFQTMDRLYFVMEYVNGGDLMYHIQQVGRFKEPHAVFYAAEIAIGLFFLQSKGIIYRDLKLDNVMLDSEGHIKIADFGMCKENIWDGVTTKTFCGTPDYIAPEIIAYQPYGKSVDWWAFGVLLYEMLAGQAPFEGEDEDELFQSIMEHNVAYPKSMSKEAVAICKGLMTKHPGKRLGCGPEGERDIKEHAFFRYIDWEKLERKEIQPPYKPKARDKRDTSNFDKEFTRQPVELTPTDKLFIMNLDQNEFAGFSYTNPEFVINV
Sequence of UniProt P11802 (whole entry, looked up): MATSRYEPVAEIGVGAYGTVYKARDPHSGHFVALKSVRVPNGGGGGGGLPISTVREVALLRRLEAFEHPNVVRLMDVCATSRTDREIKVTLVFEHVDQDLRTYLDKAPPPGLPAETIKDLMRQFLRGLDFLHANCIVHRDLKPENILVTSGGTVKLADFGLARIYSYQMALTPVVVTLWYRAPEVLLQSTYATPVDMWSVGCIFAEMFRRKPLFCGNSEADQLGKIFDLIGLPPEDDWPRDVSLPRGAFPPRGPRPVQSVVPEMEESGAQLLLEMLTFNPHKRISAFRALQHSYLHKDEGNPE
Sequence of UniProt Q13976 (whole entry, looked up): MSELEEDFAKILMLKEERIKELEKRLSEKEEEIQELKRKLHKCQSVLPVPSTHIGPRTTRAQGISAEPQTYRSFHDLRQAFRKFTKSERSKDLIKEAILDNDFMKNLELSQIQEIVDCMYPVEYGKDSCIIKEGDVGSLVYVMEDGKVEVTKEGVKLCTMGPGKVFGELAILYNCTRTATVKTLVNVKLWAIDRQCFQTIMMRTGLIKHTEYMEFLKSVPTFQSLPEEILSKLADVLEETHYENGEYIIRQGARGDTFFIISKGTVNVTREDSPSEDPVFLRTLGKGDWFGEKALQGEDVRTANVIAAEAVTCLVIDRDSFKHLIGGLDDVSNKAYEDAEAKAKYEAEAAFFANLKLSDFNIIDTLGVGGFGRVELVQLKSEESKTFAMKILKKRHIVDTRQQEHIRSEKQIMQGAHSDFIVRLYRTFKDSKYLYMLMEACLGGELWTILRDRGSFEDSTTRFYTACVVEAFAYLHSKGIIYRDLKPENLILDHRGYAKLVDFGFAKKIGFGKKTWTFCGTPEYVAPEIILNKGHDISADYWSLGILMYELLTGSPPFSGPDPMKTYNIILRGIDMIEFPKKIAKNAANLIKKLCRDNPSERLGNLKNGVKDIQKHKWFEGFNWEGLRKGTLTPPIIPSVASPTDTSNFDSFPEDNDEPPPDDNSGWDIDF
Sequence of UniProt Q9UIK4 (whole entry, looked up): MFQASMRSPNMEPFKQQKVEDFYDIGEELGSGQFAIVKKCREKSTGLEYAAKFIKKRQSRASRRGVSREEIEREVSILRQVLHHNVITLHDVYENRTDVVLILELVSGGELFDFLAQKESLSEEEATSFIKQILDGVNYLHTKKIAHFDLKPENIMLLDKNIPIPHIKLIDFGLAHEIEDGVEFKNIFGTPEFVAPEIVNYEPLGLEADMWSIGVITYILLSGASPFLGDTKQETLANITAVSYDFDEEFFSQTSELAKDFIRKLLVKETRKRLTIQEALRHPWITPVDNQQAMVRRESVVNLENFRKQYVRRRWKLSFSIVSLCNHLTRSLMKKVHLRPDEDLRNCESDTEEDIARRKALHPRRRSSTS

Study 1 — target: CREB3, bZIP domain (human); method: DHFR protein complementation; matrix: yeast; reference: wild-type JUN-FOS pair; direction: higher = stronger binding
Setting: single substitutions, most at no-binding floor
Starting sequence: JUN, bZIP domain (human); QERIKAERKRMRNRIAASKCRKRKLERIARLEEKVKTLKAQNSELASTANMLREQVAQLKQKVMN; partner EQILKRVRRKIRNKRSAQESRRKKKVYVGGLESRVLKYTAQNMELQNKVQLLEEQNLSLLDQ
Variant	binding fitness
L38R	-1.5 natural log
L45K	-1.52 natural log
A29C	-1.4 natural log
V56L	-1.45 natural log
L31W	-1.54 natural log
L31I	-1.37 natural log
T37C	-1.45 natural log
E33Q	-1.4 natural log

Study 2 — concentration: 1 µM
Structure (SMILES): CNC(=O)Nc1ccc2c(c1)CC[C@@]21OC(=O)N(CC(=O)N(Cc2ccc(F)cc2)[C@@H](C)C(F)(F)F)C1=O
target	test	remaining binding
Dual specificity testis-specific protein kinase 1 (TESK1, Homo sapiens, UniProt Q15569)	cell-free assay, competition with immobilised ligand	73%
Calcium/calmodulin-dependent protein kinase type 1D (CAMK1D, Homo sapiens, UniProt Q8IU85)	cell-free assay, competition with immobilised ligand	94%
Tyrosine-protein kinase FRK (FRK, Homo sapiens, UniProt P42685)	cell-free assay, competition with immobilised ligand	94%
Ribosomal protein S6 kinase alpha-6, N-terminal kinase domain (RPS6KA6, Homo sapiens, UniProt Q9UK32)	cell-free assay, competition with immobilised ligand	81%
Serine/threonine-protein kinase WNK1 (WNK1, Homo sapiens, UniProt Q9H4A3)	cell-free assay, competition with immobilised ligand	93%
Leucine-rich repeat serine/threonine-protein kinase 2 (LRRK2, Homo sapiens, UniProt Q5S007)	cell-free assay, competition with immobilised ligand	79%
Serine/threonine-protein kinase RIO1 (RIOK1, Homo sapiens, UniProt Q9BRS2)	cell-free assay, competition with immobilised ligand	100%
Phosphatidylinositol 3-kinase C2 domain-containing subunit gamma (PIK3C2G, Homo sapiens, UniProt O75747)	cell-free assay, competition with immobilised ligand	75%
Serine/threonine-protein kinase MRCK gamma (CDC42BPG, Homo sapiens, UniProt Q6DT37)	competition binding	88%
Tyrosine-protein kinase Fgr (FGR, Homo sapiens, UniProt P09769)	cell-free assay, competition with immobilised ligand	75%
Serine/threonine-protein kinase DCLK1 (DCLK1, Homo sapiens, UniProt O15075)	cell-free assay, competition with immobilised ligand	96%
Phosphatidylinositol 5-phosphate 4-kinase type-2 gamma (PIP4K2C, Homo sapiens, UniProt Q8TBX8)	cell-free assay, competition with immobilised ligand	93%

Study 3 — effect on: enzyme activity; action: inhibitor; concentration: 0.5 µM; reference: control
SMILES: Cc1nc(Nc2ncc(C(=O)Nc3c(C)cccc3Cl)s2)cc(N2CCN(CCO)CC2)n1
target	remaining activity
Protein kinase C beta type, isoform beta-I (PRKCB, Homo sapiens, UniProt P05771)	98.8%
G protein-coupled receptor kinase 3 (GRK3, Homo sapiens, UniProt P35626)	102%
Cyclin-dependent kinase 4, with cyclin D1 (CDK4, Homo sapiens, UniProt P11802)	94.4%
Cyclin-dependent kinase 5, with p25 (CDK5, Homo sapiens, UniProt Q00535)	102%
Mitogen-activated protein kinase 9 (MAPK9, Homo sapiens, UniProt P45984)	110%
Mitogen-activated protein kinase kinase kinase 3 (MAP3K3, Homo sapiens, UniProt Q99759)	87.8%
Inhibitor of nuclear factor kappa-B kinase subunit epsilon (IKBKE, Homo sapiens, UniProt Q14164)	90%
cGMP-dependent protein kinase 1, isoform beta (PRKG1, Homo sapiens, UniProt Q13976)	94.4%
TGF-beta receptor type-2 (TGFBR2, Homo sapiens, UniProt P37173)	98.3%
Serine/threonine-protein kinase STK11 (STK11, Homo sapiens, UniProt Q15831)	108%
Death-associated protein kinase 2 (DAPK2, Homo sapiens, UniProt Q9UIK4)	91.2%

Study 4 — Variant: L93Q; method: DHFR PCA, deep sequencing; matrix: yeast; reference: wild-type fitted maximum; direction: higher = stronger binding
Target: ABI1, truncated, D143A, DHFR fusion (Arabidopsis thaliana)
Setting: methotrexate growth selection, single substitutions
Starting sequence: PYL1, truncated, DHFR fusion (Arabidopsis thaliana); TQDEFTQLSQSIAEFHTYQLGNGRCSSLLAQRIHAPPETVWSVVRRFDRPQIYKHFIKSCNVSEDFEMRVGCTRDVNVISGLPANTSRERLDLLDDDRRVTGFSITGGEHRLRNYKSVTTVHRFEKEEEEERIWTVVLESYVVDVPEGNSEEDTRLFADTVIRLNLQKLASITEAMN; partner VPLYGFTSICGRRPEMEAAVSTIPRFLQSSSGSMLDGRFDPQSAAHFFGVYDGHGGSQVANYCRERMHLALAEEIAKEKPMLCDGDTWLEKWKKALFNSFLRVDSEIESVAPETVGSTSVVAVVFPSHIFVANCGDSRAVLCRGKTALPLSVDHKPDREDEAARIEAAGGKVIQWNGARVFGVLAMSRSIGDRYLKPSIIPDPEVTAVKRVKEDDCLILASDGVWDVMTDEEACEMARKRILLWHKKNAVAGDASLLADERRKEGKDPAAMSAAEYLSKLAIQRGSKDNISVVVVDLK
setting	relative binding score
together with: (+)-ABA 0.0091 µM	-2.31%
together with: (+)-ABA 0.39 µM	13%
together with: (+)-ABA 0.032 µM	-0.686%
together with: (+)-ABA 58 µM	92%
together with: (+)-ABA 17 µM	79.8%
together with: (+)-ABA 1.4 µM	38.6%
